Measured values from different studies.
Each line is one published result; not all experiments were run side by side. Values joined by “and” are separate records of one study, mostly repeats; a detail may differ. ± gives the spread as reported.
SNCA fibrils: Alpha-synuclein, fibrils (SNCA, Homo sapiens, UniProt P37840)
SNCA filaments: Alpha-synuclein, filaments (SNCA, Homo sapiens, UniProt P37840)
SNCA oligomers: Alpha-synuclein, oligomers (SNCA, Homo sapiens, UniProt P37840)

| Structure (SMILES) | target | test | system | setting | measurement | result |
| --- | --- | --- | --- | --- | --- | --- |
| O=C(/C=C/c1ccc([N+](=O)[O-])cc1)c1nc2ccccc2s1 | SNCA fibrils | fibril binding, thioflavin T competition |  | 1 µM fibrils, together with: thioflavin T 3 µM | Ki | > 500 nM |
| CNc1ccc(-c2nc3ccc(O)cc3s2)cc1 | SNCA filaments | radioligand displacement | α-synuclein filaments | together with: [3H]Me-BTA-1 4 nM | Ki | 16.5 ± 4.36 nM |
| O=C(OC[C@H]1O[C@@H](OC(=O)c2cc(O)c(O)c(O)c2)[C@H](OC(=O)c2cc(O)c(O)c(O)c2)[C@@H](OC(=O)c2cc(O)c(O)c(O)c2)[C@@H]1OC(=O)c1cc(O)c(O)c(O)c1)c1cc(O)c(O)c(O)c1 | SNCA oligomers | oligomer-induced calcein release, inhibitor | DOPG liposomes |  | IC50 | 10 nM |
| COc1ccc(/C=C/C(=O)c2nc3ccccc3s2)cc1 | SNCA fibrils | fibril binding, thioflavin T competition |  | 1 µM fibrils, together with: thioflavin T 3 µM | Ki | 531 nM and 530 nM |
| N#Cc1ccc(-c2ccc(/C=C/C=C3\Cc4ccc(O)cc4C3=O)cc2)s1 | SNCA fibrils | fluorescence saturation binding | synthetic alpha-synuclein fibrils | 1 h | Kd | 149 ± 20.6 nM |
| O=C(O[C@@H]1Cc2c(O)cc(O)cc2O[C@@H]1c1cc(O)c(O)c(O)c1)c1cc(O)c(O)c(O)c1 | SNCA oligomers | oligomer-induced calcein release, inhibitor | DOPG liposomes |  | IC50 | 80 nM |
| CN(C)c1ccc(-c2cc3cc(Br)ccc3o2)cc1 | SNCA filaments | binding, radioligand displacement | α-synuclein fibrils | together with: 4 nM [3H]Me-BTA-1 | Ki | 4.78 ± 0.43 nM |
| CN(C)c1ccc(-c2ccc(/C=C/C=C3\Cc4ccc(O)cc4C3=O)cc2)cc1 | SNCA fibrils | fluorescence saturation binding | synthetic alpha-synuclein fibrils | 1 h | Kd | 236 ± 10.5 nM |

Excerpt of the above:
| Structure (SMILES) | target | test | system | setting | measurement | result |
| --- | --- | --- | --- | --- | --- | --- |
| N#Cc1ccc(-c2ccc(/C=C/C=C3\Cc4ccc(O)cc4C3=O)cc2)s1 | SNCA fibrils | fluorescence saturation binding | synthetic alpha-synuclein fibrils | 1 h | Kd | 149 ± 20.6 nM |
